# Measurements collected from several papers.
# Numbered parts are unrelated; each lists some results of a single study. “And” joins repeats or separate records; there may be more than shown.
# Sequence of UniProt O95747 (whole entry, looked up): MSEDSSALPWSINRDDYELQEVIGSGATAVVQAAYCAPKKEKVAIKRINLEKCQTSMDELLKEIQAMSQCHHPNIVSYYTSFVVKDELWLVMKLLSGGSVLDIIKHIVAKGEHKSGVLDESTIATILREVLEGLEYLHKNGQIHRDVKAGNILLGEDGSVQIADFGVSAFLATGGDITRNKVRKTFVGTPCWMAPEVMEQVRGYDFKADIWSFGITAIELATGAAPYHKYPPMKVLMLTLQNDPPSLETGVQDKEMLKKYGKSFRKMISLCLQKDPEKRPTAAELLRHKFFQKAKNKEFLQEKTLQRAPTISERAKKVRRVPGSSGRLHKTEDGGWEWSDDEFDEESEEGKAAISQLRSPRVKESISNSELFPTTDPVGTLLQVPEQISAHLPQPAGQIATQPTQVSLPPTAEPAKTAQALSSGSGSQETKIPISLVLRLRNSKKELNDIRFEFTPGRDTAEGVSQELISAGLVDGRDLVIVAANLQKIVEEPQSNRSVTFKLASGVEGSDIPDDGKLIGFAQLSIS
# Sequence of UniProt P45984 (whole entry, looked up): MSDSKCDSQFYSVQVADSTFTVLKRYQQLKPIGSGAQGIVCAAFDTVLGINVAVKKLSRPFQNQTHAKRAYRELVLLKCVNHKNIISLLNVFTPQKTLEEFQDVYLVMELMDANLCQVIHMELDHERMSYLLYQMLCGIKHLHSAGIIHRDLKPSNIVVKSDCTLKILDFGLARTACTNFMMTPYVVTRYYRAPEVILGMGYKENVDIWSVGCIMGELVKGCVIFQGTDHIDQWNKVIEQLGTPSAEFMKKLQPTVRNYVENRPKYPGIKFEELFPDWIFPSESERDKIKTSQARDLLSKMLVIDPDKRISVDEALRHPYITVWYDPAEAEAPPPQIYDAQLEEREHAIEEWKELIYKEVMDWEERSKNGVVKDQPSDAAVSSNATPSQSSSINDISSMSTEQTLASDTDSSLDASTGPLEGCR
# Sequence of UniProt Q9BYT3 (whole entry, looked up): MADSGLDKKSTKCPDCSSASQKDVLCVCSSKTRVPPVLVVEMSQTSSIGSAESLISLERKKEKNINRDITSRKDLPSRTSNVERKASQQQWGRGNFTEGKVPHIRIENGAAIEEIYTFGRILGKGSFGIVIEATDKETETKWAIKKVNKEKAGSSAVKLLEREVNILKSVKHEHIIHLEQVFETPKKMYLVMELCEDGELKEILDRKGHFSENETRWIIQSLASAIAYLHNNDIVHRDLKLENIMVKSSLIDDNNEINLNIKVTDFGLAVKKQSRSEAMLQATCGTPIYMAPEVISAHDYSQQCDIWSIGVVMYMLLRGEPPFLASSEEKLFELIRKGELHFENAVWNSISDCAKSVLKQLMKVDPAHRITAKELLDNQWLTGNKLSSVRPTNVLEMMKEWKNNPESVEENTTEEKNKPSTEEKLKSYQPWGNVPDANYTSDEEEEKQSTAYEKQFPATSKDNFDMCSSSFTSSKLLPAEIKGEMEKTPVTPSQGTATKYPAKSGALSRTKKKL
# Sequence of UniProt P54646 (whole entry, looked up): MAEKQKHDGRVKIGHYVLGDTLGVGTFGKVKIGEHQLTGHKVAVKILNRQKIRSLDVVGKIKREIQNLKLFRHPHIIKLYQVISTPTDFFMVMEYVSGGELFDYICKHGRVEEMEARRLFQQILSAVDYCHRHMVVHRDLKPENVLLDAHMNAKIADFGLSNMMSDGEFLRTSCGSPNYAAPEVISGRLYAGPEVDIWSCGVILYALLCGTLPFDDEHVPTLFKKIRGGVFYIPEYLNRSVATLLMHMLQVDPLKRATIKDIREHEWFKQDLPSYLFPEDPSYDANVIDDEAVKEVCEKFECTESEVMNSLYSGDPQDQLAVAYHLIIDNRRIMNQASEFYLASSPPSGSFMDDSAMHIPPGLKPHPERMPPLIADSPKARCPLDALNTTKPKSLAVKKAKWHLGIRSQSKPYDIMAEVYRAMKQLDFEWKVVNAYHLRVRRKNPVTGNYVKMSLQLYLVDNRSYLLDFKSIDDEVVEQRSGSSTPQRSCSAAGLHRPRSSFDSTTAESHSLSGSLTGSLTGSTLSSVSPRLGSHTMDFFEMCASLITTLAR
# Sequence of UniProt Q6PHR2 (whole entry, looked up): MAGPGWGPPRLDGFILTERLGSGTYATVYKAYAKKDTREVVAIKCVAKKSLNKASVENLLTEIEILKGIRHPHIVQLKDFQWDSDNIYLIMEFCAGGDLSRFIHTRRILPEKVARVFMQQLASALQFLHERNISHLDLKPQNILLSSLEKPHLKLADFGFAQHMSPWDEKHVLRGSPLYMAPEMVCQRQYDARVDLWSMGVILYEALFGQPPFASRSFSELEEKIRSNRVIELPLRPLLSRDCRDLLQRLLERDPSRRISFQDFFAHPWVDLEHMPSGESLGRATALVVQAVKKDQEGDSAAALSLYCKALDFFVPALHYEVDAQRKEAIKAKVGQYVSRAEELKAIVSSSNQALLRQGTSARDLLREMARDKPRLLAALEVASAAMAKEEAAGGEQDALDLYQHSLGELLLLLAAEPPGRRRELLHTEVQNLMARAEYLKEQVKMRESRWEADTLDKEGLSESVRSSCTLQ
# Sequence of UniProt P06239 (whole entry, looked up): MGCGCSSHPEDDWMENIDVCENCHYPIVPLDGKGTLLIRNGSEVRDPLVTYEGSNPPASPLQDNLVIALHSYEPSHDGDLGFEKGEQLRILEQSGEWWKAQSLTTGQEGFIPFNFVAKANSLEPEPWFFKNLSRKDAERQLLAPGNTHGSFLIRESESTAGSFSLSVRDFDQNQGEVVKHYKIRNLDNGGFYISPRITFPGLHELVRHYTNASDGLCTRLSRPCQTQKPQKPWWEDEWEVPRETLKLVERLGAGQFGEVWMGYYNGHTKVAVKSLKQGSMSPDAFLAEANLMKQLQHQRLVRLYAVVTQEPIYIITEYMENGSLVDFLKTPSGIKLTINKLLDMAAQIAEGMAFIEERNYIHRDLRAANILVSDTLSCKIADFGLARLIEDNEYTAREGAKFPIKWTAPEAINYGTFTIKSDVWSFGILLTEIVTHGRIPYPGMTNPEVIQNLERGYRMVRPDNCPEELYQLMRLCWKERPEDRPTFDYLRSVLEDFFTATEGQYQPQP
# Sequence of UniProt P53779 (whole entry, looked up): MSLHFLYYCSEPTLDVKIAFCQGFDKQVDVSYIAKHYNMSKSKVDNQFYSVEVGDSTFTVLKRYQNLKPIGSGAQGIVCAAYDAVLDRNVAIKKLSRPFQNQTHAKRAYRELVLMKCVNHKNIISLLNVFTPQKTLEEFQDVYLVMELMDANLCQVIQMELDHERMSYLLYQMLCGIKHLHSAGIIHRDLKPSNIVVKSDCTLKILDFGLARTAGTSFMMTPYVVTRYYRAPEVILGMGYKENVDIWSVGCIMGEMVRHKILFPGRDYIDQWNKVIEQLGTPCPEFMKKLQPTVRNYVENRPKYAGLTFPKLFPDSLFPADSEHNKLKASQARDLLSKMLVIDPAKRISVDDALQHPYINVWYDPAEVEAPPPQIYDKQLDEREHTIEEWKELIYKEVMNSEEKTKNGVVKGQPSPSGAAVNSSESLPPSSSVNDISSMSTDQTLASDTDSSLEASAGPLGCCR
# Sequence of UniProt Q9BVS4 (whole entry, looked up): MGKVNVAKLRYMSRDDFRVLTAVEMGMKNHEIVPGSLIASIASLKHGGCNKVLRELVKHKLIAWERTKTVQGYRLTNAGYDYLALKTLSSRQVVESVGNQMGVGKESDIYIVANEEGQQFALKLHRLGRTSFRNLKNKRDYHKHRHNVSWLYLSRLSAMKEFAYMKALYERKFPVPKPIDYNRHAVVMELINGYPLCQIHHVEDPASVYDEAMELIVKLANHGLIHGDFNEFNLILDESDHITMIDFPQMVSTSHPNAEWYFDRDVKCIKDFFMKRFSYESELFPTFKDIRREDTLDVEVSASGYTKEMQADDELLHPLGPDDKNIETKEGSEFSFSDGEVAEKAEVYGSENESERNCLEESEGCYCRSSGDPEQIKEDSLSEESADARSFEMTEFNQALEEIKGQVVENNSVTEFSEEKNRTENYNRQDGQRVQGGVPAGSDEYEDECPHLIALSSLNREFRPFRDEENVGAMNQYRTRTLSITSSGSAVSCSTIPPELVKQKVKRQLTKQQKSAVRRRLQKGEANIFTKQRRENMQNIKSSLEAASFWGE
# Sequence of UniProt Q7KZI7 (whole entry, looked up): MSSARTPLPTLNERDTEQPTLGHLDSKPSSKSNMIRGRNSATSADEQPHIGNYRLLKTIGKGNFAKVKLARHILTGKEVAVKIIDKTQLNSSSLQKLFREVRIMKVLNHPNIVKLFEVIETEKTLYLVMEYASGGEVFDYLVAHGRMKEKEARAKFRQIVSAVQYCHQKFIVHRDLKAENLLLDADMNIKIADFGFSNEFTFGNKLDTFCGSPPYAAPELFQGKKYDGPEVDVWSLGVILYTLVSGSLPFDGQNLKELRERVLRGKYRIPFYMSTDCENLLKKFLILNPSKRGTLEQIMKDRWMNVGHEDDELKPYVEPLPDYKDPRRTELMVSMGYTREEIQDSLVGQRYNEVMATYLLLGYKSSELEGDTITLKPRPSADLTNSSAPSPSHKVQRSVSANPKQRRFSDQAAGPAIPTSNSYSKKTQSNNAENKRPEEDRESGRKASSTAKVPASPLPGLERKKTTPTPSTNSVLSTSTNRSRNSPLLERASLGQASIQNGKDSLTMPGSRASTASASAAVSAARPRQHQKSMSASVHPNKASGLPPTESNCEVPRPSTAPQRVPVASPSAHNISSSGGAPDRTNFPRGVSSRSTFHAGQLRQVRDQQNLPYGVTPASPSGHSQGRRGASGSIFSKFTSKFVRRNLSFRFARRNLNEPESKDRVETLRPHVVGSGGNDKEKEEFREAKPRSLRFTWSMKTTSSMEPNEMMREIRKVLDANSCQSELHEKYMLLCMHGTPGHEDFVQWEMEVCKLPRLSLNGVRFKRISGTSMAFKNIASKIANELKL

# Set 1
# SMILES: CC[n+]1c(/C=C/N(C)c2ccccc2)n(-c2ccccc2)c2ccc(-c3nc4ccccc4s3)cc21
# Effect on: enzyme activity
# Action: inhibitor
# Tested at: 0.5 µM
# Baseline: control
target,remaining activity
"Protein kinase C beta type, isoform beta-I (PRKCB, Homo sapiens, UniProt P05771)",102%
"MAP3K3 (Homo sapiens, UniProt Q99759)",109%
"Tyrosine-protein kinase Lyn, isoform B (LYN, Homo sapiens, UniProt P07948)",110%
"cGMP-dependent protein kinase 1, isoform beta (PRKG1, Homo sapiens, UniProt Q13976)",105%
"DAPK1 (Homo sapiens, UniProt P53355)",74.7%
"STK10 (Homo sapiens, UniProt O94804)",101%
"OXSR1 (Homo sapiens, UniProt O95747)",94.2%
"MAPK9 (Homo sapiens, UniProt P45984)",94.6%

# Set 2
# Species: mouse
# Matrix: microsomes or S9
# Tested at: 2 µM
# Time: 0.5 h
Structure (SMILES),remaining compound
CC(c1cccc(O)c1)N(C)S(=O)(=O)c1ccc2cn[nH]c2c1 (stereo not drawn),0.459%
COc1ccc(Cl)cc1NC(=O)N1Cc2c(sc3c2CCCC3)-n2cccc2C1c1cccc(F)c1 (stereo not drawn),33.9%
CCCCN(C)Cc1cc(=O)oc2cc(C)c(O)cc12,78.4%
Nc1cccc(Nc2nc(-c3ccc(Cl)cc3)cs2)c1,21.7%
COc1c(Br)ccc2c1sc1ncnc(NC(C)C(=O)O)c12 (stereo not drawn),77.2%
CN(C)c1ccc(S(=O)(=O)c2ccc(Cl)cc2)cc1,0.271%
Cc1cc(O)c(C(=O)O)cc1S(=O)(=O)Nc1ccc(NC(=O)NCC2CCCO2)cc1 (stereo not drawn),70.9%

# Set 3
# SMILES: Cc1nc(C2CCN(C(=O)c3ccc(OC(F)(F)F)cc3N)CC2)c2ncc(N3CCN(C)CC3)cc2n1
# Technique: competition with immobilised ligand
# Tested at: 1 µM
target,assay,remaining binding [%]
"MAPK9 (Homo sapiens, UniProt P45984)",cell-free assay,100
"STK33 (Homo sapiens, UniProt Q9BYT3)",cell-free assay,100
"RIOK2 (Homo sapiens, UniProt Q9BVS4)",cell-free assay,100
"PIK3CG (Homo sapiens, UniProt P48736)",cell-free assay,79
"PIM3 (Homo sapiens, UniProt Q86V86)",cell-free assay,100
"IRAK4 (Homo sapiens, UniProt Q9NWZ3)",cell-free assay,90
"Tyrosine-protein kinase ABL1, non-phosphorylated (ABL1, Homo sapiens, UniProt P00519, Q252H)",cell-free assay,81
"MAPK14 (Homo sapiens, UniProt Q16539)",cell-free assay,100
"ULK3 (Homo sapiens, UniProt Q6PHR2)",cell-free assay,46
"TSSK1B (Homo sapiens, UniProt Q9BXA7)",cell-free assay,100
"Myosin-IIIa (MYO3A, Homo sapiens, UniProt Q8NEV4)",cell-free assay,100
"CDK16 (Homo sapiens, UniProt Q00536)",cell-free assay,100
"MAP3K10 (Homo sapiens, UniProt Q02779)",cell-free assay,100
"LCK (Homo sapiens, UniProt P06239)",cell-free assay,100
"SIK3 (Homo sapiens, UniProt Q9Y2K2)",cell-free assay,91
"Tyrosine-protein kinase ABL1, phosphorylated (ABL1, Homo sapiens, UniProt P00519, E255K)",binding,100
"PRKAA2 (Homo sapiens, UniProt P54646)",cell-free assay,100
"MAPK10 (Homo sapiens, UniProt P53779)",cell-free assay,100
"OXSR1 (Homo sapiens, UniProt O95747)",cell-free assay,49
"HUNK (Homo sapiens, UniProt P57058)",cell-free assay,100
"MAP3K13 (Homo sapiens, UniProt O43283)",cell-free assay,100
"ROS1 (Homo sapiens, UniProt P08922)",cell-free assay,92
"MARK2 (Homo sapiens, UniProt Q7KZI7)",cell-free assay,100
"TIE1 (Homo sapiens, UniProt P35590)",cell-free assay,100

# Set 4
# Organism: Sarcocystis neurona
# Effect on: parasite activity
# Tested at: concentration not given
SMILES,activity class
CC(C)C[C@H](NC(=O)[C@@H](COC(C)(C)C)NC(=O)[C@H](Cc1ccc(O)cc1)NC(=O)[C@H](CO)NC(=O)[C@H](Cc1c[nH]c2ccccc12)NC(=O)[C@H](Cc1cnc[nH]1)NC(=O)[C@@H]1CCC(=O)N1)C(=O)N[C@@H](CCCNC(=N)N)C(=O)N1CCC[C@H]1C(=O)NNC(N)=O,inactive
Nc1nc(=O)[nH]cc1F,inactive
Cl.O.O=C1N(c2ccccc2)c2ccccc2C1(Cc1ccncc1)Cc1ccncc1,inactive
Nc1ncnc2c1ncn2[C@@H]1O[C@H](CO)C[C@H]1O,inactive
CC(=O)OCC(=O)[C@@]12OC(C)(C)O[C@@H]1C[C@H]1[C@@H]3C[C@H](F)C4=CC(=O)C=C[C@]4(C)[C@@]3(F)[C@@H](O)C[C@@]12C,inactive
CN1CCC(=C2c3ccccc3CCc3sccc32)CC1.O=C(O)/C=C\C(=O)O,inactive
CC(=O)O.CNC(=N)NCCC[C@H](N)C(=O)O,inactive
CN1[C@@H](CC(=O)c2ccccc2)CCC[C@H]1C[C@H](O)c1ccccc1.Cl,inactive

# Mixed results
Structure (SMILES),tested on,assay,system,setting,how to read,enzyme activity
Ic1ccc(Nc2nc(NCCN3CCOCC3)nc(N3CCOCC3)n2)cc1,L444P/L444P Gaucher fibroblasts,4-MUG hydrolysis in lysate,,"0.1 µM, 72 h",baseline: vehicle,103% and 111% and 113% and 108% and 98.9% and 109%
Cc1cccc(/C=N/Nc2cc(N3CCOCC3)nc(OCCc3ccccn3)n2)c1,L444P/L444P Gaucher fibroblasts,4-MUG hydrolysis in lysate,,"50 nM, 72 h",baseline: vehicle,183% and 171% and 197% and 181% and 166%
O=C(COc1ccc(Cl)cc1)NC1CCC(NC(=O)COc2ccc(Cl)cc2)CC1 (stereo not drawn),L444P/L444P Gaucher fibroblasts,4-MUG hydrolysis in lysate,,"0.02 µM, 72 h",baseline: vehicle,113% and 111% and 112% and 115% and 110%
c1ccc2c(-c3nn4c(-c5ccncc5)nnc4s3)c[nH]c2c1,alpha-galactosidase (human),,healthy dermal fibroblasts,"0.5 µM, with ISRIB",baseline: DMSO without ISRIB,185% and 241% and 200% and 195% and 197% and 208% and 159% and 190%
